Measured values of several laboratories.
Each numbered part is a random draw from the data of one study; scales do not carry over between parts.
Chain of UniProt Q15326 (whole entry, looked up): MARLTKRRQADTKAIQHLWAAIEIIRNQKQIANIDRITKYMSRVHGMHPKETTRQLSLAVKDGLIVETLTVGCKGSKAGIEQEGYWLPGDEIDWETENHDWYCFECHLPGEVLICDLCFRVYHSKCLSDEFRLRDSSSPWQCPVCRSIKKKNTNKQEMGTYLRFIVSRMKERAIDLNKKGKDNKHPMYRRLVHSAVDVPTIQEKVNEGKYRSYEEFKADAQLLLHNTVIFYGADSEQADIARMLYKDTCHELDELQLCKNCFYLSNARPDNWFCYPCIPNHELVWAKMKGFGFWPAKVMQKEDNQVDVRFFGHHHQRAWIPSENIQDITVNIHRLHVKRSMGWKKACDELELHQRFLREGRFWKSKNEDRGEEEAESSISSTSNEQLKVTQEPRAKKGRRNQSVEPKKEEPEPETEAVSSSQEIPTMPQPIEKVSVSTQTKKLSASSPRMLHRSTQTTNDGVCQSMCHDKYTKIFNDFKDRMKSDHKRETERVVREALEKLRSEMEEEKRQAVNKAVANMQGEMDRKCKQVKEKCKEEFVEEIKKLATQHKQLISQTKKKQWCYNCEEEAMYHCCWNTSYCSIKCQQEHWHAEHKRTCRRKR

Block 1 — method: protein-binding microarray; form: double-stranded DNA, one strand shown; sample: in vitro; concentration: 940 nM top; setting: 60-bp whole probe; added: salmon DNA 0.4 mg/ml; baseline: random background probes; reading: higher = stronger binding; quantity: fitted relative affinity
Target: Interferon regulatory factor 5, full length, phosphomimetic (IRF5, Homo sapiens, UniProt Q13568-2, residues 1-514, S451D/S453D/S456D/S462D)
GCCTAGCACTGTTGTCTTAGATTCCTTTGGTGCTAGGTCTTGATTCGCTTGACGCTGCTG: 0.605 z-score
GCCTAGCACTTACGTTTCGGGACTGGGTTAGTGCTAGTCTTGATTCGCTTGACGCTGCTG: 4.31 z-score
GCCTAGCACCTAGATCTCAGACTGGATTAGTGCTAGGTCTTGATTCGCTTGACGCTGCTG: -0.208 z-score

Block 2 — method: RNA Bind-n-Seq; form: RNA; sample: in vitro; concentration: 365 nM; baseline: no-protein control; reading: higher = stronger binding; quantity: RBNS enrichment (R)
Target: RNA binding protein fox-1 homolog 2, RRM domain, GST-SBP tag (RBFOX2, Homo sapiens, UniProt O43251-10, residues 100-194)
Setting: natural RNA segment, single round, ends assumed
GGGAGUUCUACAGUCCGACGAUCCCCCAGCUAAGAUAGCAUGAGGACGUUGUAUUCCAAUAUACGUAUGAUUGGGGCUACAAAGCUGAACUAAAGCAAGAUUGGUGAAGUGGCAGGGUUUAUAGAGAGAAGCCUGGAAUUCUCGGGUGCCAA: 3.81
GGGAGUUCUACAGUCCGACGAUCACACUUUUGACAGUAUUUUGUUUUGCCCUGAUUUGGGGGAUUGUUUUGUUUUGGUGGUUGUUUUGGAAAAACAGUUUAUAAACUGAUUUUUGUAGUUUUGGUAUUUAAAGUGGAAUUCUCGGGUGCCAA: 5.27
GGGAGUUCUACAGUCCGACGAUCGCUAAAUGAAACAGUGGCUUAAAUAUUUUAAUGGGAAAAGAGAACACAGUGCGUUCCAUAUUGUGAUAAGGUAACGUGAGGUUUUUUUGUUUUGUUUUGUUUUCUUUUUUUGGAAUUCUCGGGUGCCAA: 1.06
GGGAGUUCUACAGUCCGACGAUCUUUCCAAGGCACGGUGUGGACGCAUCUGUCACCGACCCGAGGUGACGUGGUACUGGGAUGUGAGUGCAGUAGUGAGUCCCCCUGGGAAGGGAAGGGAGAUCACCACGUCCUGGAAUUCUCGGGUGCCAA: 0.958

Mixed results
PhoQ, residues 284 288 289 292 302 303 TTSMTC  fold induction (PhoP, residues 12 14 15 18 19 IQSYL (Escherichia coli, UniProt P23836); Sort-seq, item: YFP reporter; E. coli; PhoQ-PhoP variant library, added: 10 µM Mg2+; baseline: high Mg2+ state, higher = stronger signaling): 11.2
GGCCTGCGCAGGCC (dsDNA)  binding (ZMYND11 1-95 (Homo sapiens, UniProt Q15326); EMSA; double-stranded DNA, one strand shown): no binding
